Results pooled from the literature.
A part holds a random share of what one study measured. Substitutions count along the parent as printed.

Block 1
Target: Prothrombin, mature alpha-thrombin (F2, Homo sapiens, UniProt P00734)
Method: aptamer microarray, sandwich
Molecule type: DNA with 2'F-ANA
Medium: in vitro
Tested at: 200 nM
Notes: whole 15-mer aptamer, many near background
Added: Cy3 exosite-II aptamer, 400 nM
Direction: higher = stronger binding
Strand: GGTTGGTGTGGTTGG
Modification	mean fluorescence intensity [a.u.]
2'F-ANA at 4 5 6 7 8 12 13 14	79.5
2'F-ANA at 6 8 10 11 12 13 15	158
2'F-ANA at 1 8 12 13 14	93.7
2'F-ANA at 1 2 9 10 14	136
2'F-ANA at 2 3 4 7 8 9 11 13 14	244
2'F-ANA at 1 4 5 6 7 8 12 14 15	49.8
2'F-ANA at 1 2 3 5 6 7 8 11 12 13 15	83.1
2'F-ANA at 1 4 6 11	99.5
2'F-ANA at 1 2 6 8 10 13 15	51.4
2'F-ANA at 1 3 6 7 8 10 11 12 14 15	67.8
2'F-ANA at 6 8 10 12 13 15	173
2'F-ANA at 2 3 6 8 10 14 15	246
2'F-ANA at 3 8 9 10 11 14 15	353
2'F-ANA at 1 4 5 8 10 13	46.9
2'F-ANA at 3 6 8 9 13	821
2'F-ANA at 1 3 4 5 6 7 10 14 15	66.4
2'F-ANA at 3 6 9 10 11	412
2'F-ANA at 1 3 4 8 10 13 15	60.5
2'F-ANA at 1 4 5 10	44
2'F-ANA at 3 4 5 7 8 9 10 11 12 15	71.9
2'F-ANA at 3 8 12 15	1330
2'F-ANA at 3 6 7 8 9 10 11 12 13 14	338
2'F-ANA at 3 4 6 11 15	479
2'F-ANA at 2 4 6 8 10 11 12 15	91.7
2'F-ANA at 1 4 5 7 8 9 10 14	50.6

Block 2
Target: Fragile X messenger ribonucleoprotein 1, C-terminal low-complexity region (Fmr1, Mus musculus, UniProt P35922)
Method: RNA Bind-n-Seq
Molecule type: RNA
Medium: in vitro
Tested at: 200 nM
Notes: whole 134-nt RNA, ends assumed
Added: 150 mM LiCl
Reference: input library
Direction: higher = stronger binding
Library: 7-deaza-guanosine replaces G
Strand	log2 enrichment
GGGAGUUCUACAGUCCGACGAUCAGUCCUGUGCUACACAUCGUAUGUACCGAAUCGGGGAAAAAGGGGAAAGGGGAGGGGAAAGUAUUAUGUUACGCCGUUCGGAUCUGCACUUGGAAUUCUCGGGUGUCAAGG	-0.104
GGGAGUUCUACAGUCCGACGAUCGUCCUGUGCUACACAUCGUAUGUACCGAAUCGGGGAAAAGGGAAAAGGGGAAAAGGGGAAAGUAUUAUGUUACGCCGUUCGGAUCUGCACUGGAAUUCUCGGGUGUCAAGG	0.862
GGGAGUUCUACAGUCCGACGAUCAAGUCCUGUGCUACACAUCGUAUGUACCGAAUCGGGAAAGGGUUUUUGGGAAAGGGAAAGUAUUAUGUUACGCCGUUCGGAUCUGCACUUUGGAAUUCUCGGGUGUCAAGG	-1.5
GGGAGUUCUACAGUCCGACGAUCGCAGGAAGUAAAAACAAAUCGAAAUGCUUCGGAUAGUGGCAGGGGUGGGGGUUGCUAAGGAAAGGGUGGGAUGGGAGUGGGUAAAGAGUUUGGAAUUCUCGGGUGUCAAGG	1.39
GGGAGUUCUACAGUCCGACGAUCUUGAUGUUAGUAAAUUUGGUGUAAUACGUGGGGCUUCCAUAUUUCAAAGUGGAAGCUUUCUUCUCUGAAGUCGAUAUAUGGUUUUGAAUUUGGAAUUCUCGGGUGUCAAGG	-0.893
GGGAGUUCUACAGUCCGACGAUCGCAGGAAGUAAAAACAAAUGGAAAUGCUUCGGAUAGUAGCAGGGGUGGGGGUUGCUAAGGAAAGGGUGGGAUGGGAGUGGGUAAAGAGUUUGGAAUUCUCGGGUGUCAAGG	1.21
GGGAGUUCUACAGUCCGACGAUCUGUGCUACACAUCGUAUGUACCGAAUCGGGGCCCCCCCGGGGCCCCCCCGGGGCCCCCCCGGAAAGUAUUAUGUUACGCCGUUCGGAUCUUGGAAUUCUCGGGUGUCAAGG	-1.63
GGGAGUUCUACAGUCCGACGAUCUCCUCAAGUCCUGUGCUACACAUCGUAUGUACCGAAUCGGUUUGGAGGAGGAAAGUAUUAUGUUACGCCGUUCGGAUCUGCACUUCCAGCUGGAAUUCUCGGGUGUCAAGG	-2.11
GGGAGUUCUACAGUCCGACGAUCCCUGUGCUACACAUCGUAUGUACCGAAUCAAACCCCCCCAAACCCCCCCAAAUUUUUAAAAAAGUAUUAUGUUACGCCGUUCGGAUCUGCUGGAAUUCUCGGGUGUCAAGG	2.27
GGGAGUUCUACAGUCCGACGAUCUCAAGUCCUGUGCUACACAUCGUAUGUACCGAAUCGGGUUUGGGGUUUGGUUUGGAAAGUAUUAUGUUACGCCGUUCGGAUCUGCACUUCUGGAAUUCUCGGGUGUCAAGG	-1.01
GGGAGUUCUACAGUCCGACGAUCAGUCCUGUGCUACACAUCGUAUGUACCGAAUCGUGUGUGUGUGUGUGUGUGUGUGUGAAAGUAUUAUGUUACGCCGUUCGGAUCUGCACUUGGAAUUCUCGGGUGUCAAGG	-0.148

Block 3
Target: ABI1, truncated, D143A, DHFR fusion (Arabidopsis thaliana)
Method: DHFR PCA, deep sequencing
Medium: yeast
Notes: methotrexate growth selection, single substitutions
Added: (+)-ABA 710 µM
Reference: wild-type fitted maximum
Direction: higher = stronger binding
Parent: PYL1, truncated, DHFR fusion (Arabidopsis thaliana); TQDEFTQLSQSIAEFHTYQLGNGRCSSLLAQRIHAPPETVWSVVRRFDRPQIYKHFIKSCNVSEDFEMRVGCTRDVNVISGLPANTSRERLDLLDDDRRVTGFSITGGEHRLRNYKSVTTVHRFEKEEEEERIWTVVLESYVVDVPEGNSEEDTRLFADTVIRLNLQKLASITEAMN; partner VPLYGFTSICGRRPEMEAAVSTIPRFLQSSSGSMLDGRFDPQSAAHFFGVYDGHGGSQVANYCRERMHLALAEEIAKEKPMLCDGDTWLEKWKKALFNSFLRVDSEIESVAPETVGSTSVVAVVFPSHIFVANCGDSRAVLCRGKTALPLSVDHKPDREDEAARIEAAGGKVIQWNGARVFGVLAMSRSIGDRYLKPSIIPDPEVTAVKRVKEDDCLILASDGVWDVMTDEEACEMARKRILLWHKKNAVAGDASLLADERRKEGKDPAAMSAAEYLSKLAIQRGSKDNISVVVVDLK
Variant	relative binding score [%]
L82P	85.9
K54M	-3.06
N114M	69.2
A84I	11.5
R45E	46.7
P36G	92.7
D92K	39.1
I57N	41.3
W134L	108
L112T	23
T135S	111
T39Q	93.7
S42M	99
E152D	103
S150V	87.4
V142D	86.1
E14I	81.9
T154K	7.05

Block 4
Target: RING finger protein unkempt homolog, zinc fingers 1-6, SBP tag (UNK, Homo sapiens, UniProt Q9C0B0, residues 30-357)
Sequence of UniProt Q9C0B0 (30-357, looked up): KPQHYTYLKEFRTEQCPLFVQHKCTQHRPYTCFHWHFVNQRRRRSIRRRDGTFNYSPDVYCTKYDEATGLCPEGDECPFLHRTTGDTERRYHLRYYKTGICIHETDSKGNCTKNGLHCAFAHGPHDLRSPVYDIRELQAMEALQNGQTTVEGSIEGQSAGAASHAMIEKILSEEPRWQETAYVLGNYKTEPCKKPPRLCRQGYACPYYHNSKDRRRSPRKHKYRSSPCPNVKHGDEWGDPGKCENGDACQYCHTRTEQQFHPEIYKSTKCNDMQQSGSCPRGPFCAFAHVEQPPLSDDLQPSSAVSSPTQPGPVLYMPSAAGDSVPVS
Method: RNA Bind-n-Seq
Molecule type: RNA
Medium: in vitro
Tested at: 100 nM
Notes: RNA with constant flanks, vertebrate orthologous sites, ends assumed
Reference: input RNA pool
Direction: higher = stronger binding
Strand	bound/input enrichment [ratio]
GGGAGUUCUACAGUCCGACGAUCGCAGCACAUAAAUGACCCAAGGCAGCGACUUAAGCUUUAUGGAGAGUGCAGUCUUACAGGCACCUGCUUCCGUUUAAACUUCGAGAUUGGAUUGUUAAGAUACAUAUCUUUCAGUAAAGGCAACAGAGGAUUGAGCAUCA	0.323
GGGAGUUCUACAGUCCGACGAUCACAGAGGAGAGCUCACAAACUCAAAGGAAAACCACUAAAGAGUUUCUAAUAGUCAAGAGCUAGGAAAUAUUAAGUCAAUUUUACAAAUAAUAGCAAUUAAAAAAAGAGAUGAGAACACAGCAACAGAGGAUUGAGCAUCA	1.19
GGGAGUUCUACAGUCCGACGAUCUGUGAGGGUCUACUGACCACUCACUGUUAAAGUCUGGUAUCUGUAAACACUUUCUGUUCUUAGUCUUUUACUUGUAUAAUUGAUGUUCUUUAAAAUUGUCAAUGUAUAACAGGGCUUAUGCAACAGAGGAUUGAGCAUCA	1.07
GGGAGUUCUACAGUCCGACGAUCCAUGCACAUGCCGCUAUCACCAAAAUCAGACUGCCAUAUUUCAAAUUUCAUUCAGAGUUUUAGUGUUUCCUAUUCCCUACCCUUCCUACUACUUUCAAUGAUGAAGUAUCCUACGUUCUCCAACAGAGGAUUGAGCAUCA	2.09
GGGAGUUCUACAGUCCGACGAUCAACUGUUGUGUGAAAUGUCUAUCCAGAGAAGUGUCACCUUAUAAAUAUUAUCAAAUAAUUUAGCUAGAUUCUUCUUAAGUAUUAAAGUAUUUGUCAAGCAUUUAAAGUGAAUUUGAAAUGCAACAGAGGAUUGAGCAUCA	0.355
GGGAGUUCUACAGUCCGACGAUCCCCAUGGCUGCUUUGUAUCACCUCAGUGAGUUACAGUCCCCCUUGGCAUUUAGUUGGUACUACAGCCAGUCAUCCUUAACAAAUCUUUUCACAUUUUAUUUCUUUCACACGUAGUCAUCUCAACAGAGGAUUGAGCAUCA	2.69
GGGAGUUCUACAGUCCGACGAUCAAUUGACCAAAAACGUUUCCACUGGGUUUUGCCUGUAAGAAAAAAACGUACCUGAGCACAUAGAGCUUUUUAAUAGCACUAACCAAUGCCUUUUUAGAUGUAUUUUUGAUGUAUAUAUCUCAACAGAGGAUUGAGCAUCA	0.809
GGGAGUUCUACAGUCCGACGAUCAACUUGUAUGAAACAUGUCUGUCCAGAGAAGUAGUAUCCUAUAAAUAUUAUCAAGAAAUUUAGUAAGAGUAUUUUUAAGUAUUACAUUACAUUUCAGCAUUUAAAGUGAAUUUGAGAUUACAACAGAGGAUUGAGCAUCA	0.355
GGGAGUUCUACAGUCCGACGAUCGGGACGCUUUGACAUAAAGCUCACCGUGUCGUGACCUGAGCUACAGCGAGCACUCAAUUUGAAAACGAAUACAACUUAGAGAAAACCGUUCAGAUAAAAACCACCACUAGUCUUUGAACACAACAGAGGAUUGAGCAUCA	0.19
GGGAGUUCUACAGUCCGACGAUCUACUCGGGCACGAGUGAAUUAUUAUUAUUUUUCUUUCUUUAUUUUUUUUACAUUUUGUAUAGAAACAAAAUUCAUUUAAACAAACUUAUUAUUAUUAUUAUUUUUUACAAAAUAUAUAUACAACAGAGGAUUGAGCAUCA	1.38
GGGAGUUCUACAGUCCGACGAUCUGGGUUAUUCCUAUUAUUAUCAAGUAGCUGGAAUUGUGAAGGUCGGAGUAGUUAGAUCUUUAGCUUUUAUUCCUUUUUUUUGUAUUACUAUCCAUGUGUAUAAAUUAUUGAUCAUGUUGCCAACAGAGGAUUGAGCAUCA	2.08

Repeated from above (block 1):
Modification	mean fluorescence intensity [a.u.]
2'F-ANA at 1 4 5 7 8 9 10 14	50.6
2'F-ANA at 6 8 10 11 12 13 15	158
2'F-ANA at 1 2 9 10 14	136
2'F-ANA at 1 3 6 7 8 10 11 12 14 15	67.8
